Results pooled from the literature.
Each numbered part is a random draw from the data of one study; scales do not carry over between parts.

Block 1
Target: RNA binding protein fox-1 homolog 2, RRM domain, GST-SBP tag (RBFOX2, Homo sapiens, UniProt O43251-10, residues 100-194)
Technique: RNA Bind-n-Seq
Molecule type: RNA
Medium: in vitro
Tested at: 365 nM
Notes: natural RNA segment, single round, ends assumed
Relative to: no-protein control
Direction: higher = stronger binding
Target sequence (chain): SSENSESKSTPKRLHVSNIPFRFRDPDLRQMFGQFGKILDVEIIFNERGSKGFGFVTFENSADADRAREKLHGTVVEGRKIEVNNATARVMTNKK
Under “RBNS enrichment (R)”, `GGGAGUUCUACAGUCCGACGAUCUCAAAGCAGGCCCUCCAGAAACAGUUUGUAGCAACGUCUAGGAUGUGAAGUUUGAAGAUUUCUGAUUAGCUUUCAUCCGGUCUUCAUCUCUAUUUAUCUUAGAAGUUUAGUGGAAUUCUCGGGUGCCAA` is recorded as 1.12.
`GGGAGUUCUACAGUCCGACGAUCUAUAGUUUGCACUUUUUAAUCUAAAGUCAUCCCUUCUGAGUGAAAUUUGCUCAUAAAGCAUUUGGAUACUAAGCCAUUAUUUGCCAUUUUGGGUACUUUAUACAAAGAAAUGGAAUUCUCGGGUGCCAA` — result for “RBNS enrichment (R)”: 0.436.
`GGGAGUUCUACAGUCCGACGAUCAACCGCAGAAGAAAUGCAUUCACACAGUCGCAGAGAUGCAGGCCUUGCCAGUGGUGUGCCGGGCGCGGGUCCUGUCUGGCGGCGGCCUGUCGUCUCCAGGUGCUAACUCCUGGAAUUCUCGGGUGCCAA`: “RBNS enrichment (R)” 1.13.
For `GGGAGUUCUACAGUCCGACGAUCUUCCCAGCAAAAGGCUCCAGCUGGAGGGAUGGGUUGUGGGGCAACCUGGUUCCUGCUAACUGCCAGAUUGAAUGUGUGGGCUAGAAUGCCUGCACAUUUAGUUAAACUGGUGGAAUUCUCGGGUGCCAA`, “RBNS enrichment (R)” read 0.25.
`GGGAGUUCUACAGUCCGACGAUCUACAAAUAUUUUGAAAAAUAUGAAUAAACAUGAACUUUUAAAAGCUGCUGAACUACAGCUUAGUGAAAAGUUUCCAGUACCUGUCCUGCAAUCUCUCCUCCUGCAAGGGAUGGAAUUCUCGGGUGCCAA` — result for “RBNS enrichment (R)”: 0.601.
`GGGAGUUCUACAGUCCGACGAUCGAGGAGGCACCCUUGAAUGACUGCAGACCAGCUGUGGGCACUCGCUGCUCCUCCAGGAAAGGGUGAGGUCCGUGCUCAGCUAUGCUUGCAGGCCUGCUGUCCUCACUCCAUGGAAUUCUCGGGUGCCAA`: “RBNS enrichment (R)” 1.25.
`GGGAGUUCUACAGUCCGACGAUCUCCUUUAAUCACAGUCACUGUUUGUUUACCUUGAGCAGUAAACCCGAAGUCAGCCUGCUCUACUACUAACAAACAGGCCUGCUGCUAGAUGAUCUCUAAUGACCAAUGGGUGGAAUUCUCGGGUGCCAA`: “RBNS enrichment (R)” 0.473.
Under “RBNS enrichment (R)”, `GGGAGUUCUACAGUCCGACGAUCAUCUAAUCUGAUCCUUCUUUACGUGUCUAAAUCAAGACUGUAUCCACAUUUUACCACGCGGCCAUACUUGCAGAAUGCAGACCCUAGUGGGCUGUACUGUAUGCACUUUGUGGAAUUCUCGGGUGCCAA` is recorded as 0.288.

Block 2
Target: Ras GTPase-activating protein-binding protein 1, C-terminal RGG region (G3BP1, Homo sapiens, UniProt Q13283)
Chain of UniProt Q13283 (whole entry, looked up): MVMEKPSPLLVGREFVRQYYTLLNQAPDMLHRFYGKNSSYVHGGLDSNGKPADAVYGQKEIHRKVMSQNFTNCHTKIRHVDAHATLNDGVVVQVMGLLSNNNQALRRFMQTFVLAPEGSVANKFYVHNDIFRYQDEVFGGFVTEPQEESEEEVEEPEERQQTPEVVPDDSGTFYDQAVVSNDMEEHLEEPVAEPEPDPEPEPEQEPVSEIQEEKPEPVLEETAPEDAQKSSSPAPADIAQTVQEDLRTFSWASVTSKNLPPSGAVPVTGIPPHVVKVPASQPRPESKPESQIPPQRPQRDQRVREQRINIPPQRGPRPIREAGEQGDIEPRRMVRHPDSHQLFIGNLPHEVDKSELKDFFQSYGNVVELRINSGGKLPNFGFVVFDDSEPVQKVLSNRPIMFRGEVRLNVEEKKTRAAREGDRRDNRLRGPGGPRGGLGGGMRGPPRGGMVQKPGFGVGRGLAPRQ
Technique: RNA Bind-n-Seq
Molecule type: RNA
Medium: in vitro
Tested at: 1 µM
Notes: whole 134-nt RNA, ends assumed
With: 150 mM KCl
Relative to: input library
Direction: higher = stronger binding
`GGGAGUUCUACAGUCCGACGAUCAGUCCUGUGCUACACAUCGUAUGUACCGAAUCGGGAAAAAAAGGGUUUUUGGGUGGGAAAGUAUUAUGUUACGCCGUUCGGAUCUGCACUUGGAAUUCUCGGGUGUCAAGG` has a log2 enrichment of 0.372.
`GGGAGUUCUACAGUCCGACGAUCCAAGUCCUGUGCUACACAUCGUAUGUACCGAAUCGGUUUUUGGAAAGGUUUUUGGAAAGUAUUAUGUUACGCCGUUCGGAUCUGCACUUCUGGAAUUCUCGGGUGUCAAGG` has a log2 enrichment of -1.73.
With `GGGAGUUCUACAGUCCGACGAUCUGGCCCUGGUGGCAUGCGGGGAGGAAGAGGUGGCCUCAUGGAUCGUGGUGGUCCCGGUGGAACGUUCAGAGGUGGCCGUGGUGGAGACAGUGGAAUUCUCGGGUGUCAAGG` the log2 enrichment was 1.65.
For `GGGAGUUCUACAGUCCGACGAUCGUCCUGUGCUACACAUCGUAUGUACCGAAUCGGGGAAAGGGGAAAAAAAGGGGUGGGGAAAGUAUUAUGUUACGCCGUUCGGAUCUGCACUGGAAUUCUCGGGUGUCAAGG`, the log2 enrichment was 1.71.
`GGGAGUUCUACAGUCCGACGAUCGUCCUGUGCUACACAUCGUAUGUACCGAAUCGGGGUUUUUGGGGUUUGGGGUUUGGGGAAAGUAUUAUGUUACGCCGUUCGGAUCUGCACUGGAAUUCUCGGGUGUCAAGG` gave a log2 enrichment of 3.59.
With `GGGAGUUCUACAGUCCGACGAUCCCUGUGCUACACAUCGUAUGUACCGAAUCGGUUUUUUUGGGGUUUUUUUGGGUUUUUUUGGAAAGUAUUAUGUUACGCCGUUCGGAUCUGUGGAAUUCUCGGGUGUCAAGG` the log2 enrichment was -1.11.
`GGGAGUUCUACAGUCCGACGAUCCCUCAAGUCCUGUGCUACACAUCGUAUGUACCGAAUCGGGAGGGUGGGAGGGAAAGUAUUAUGUUACGCCGUUCGGAUCUGCACUUCCAGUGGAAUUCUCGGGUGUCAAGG` gave a log2 enrichment of 2.5.
The log2 enrichment of `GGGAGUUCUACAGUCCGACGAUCUGGGAGGUGGAUUUUGUUUAUUUUUUUAGCUCAUUUCCAGGGGUGGGAAUUUUUUGUUAAUAUGUGUCAUGAAUAAAGUUGUUUUUGAAAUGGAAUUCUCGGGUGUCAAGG` is reported as 2.79.
`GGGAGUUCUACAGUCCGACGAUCCUCAAGUCCUGUGCUACACAUCGUAUGUACCGAAUCGGGGUGGGGUGGGGUGGGAAAGUAUUAUGUUACGCCGUUCGGAUCUGCACUUCCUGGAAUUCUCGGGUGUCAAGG` gave a log2 enrichment of 2.09.

Block 3
Target: RING finger protein unkempt homolog, zinc fingers 1-6, SBP tag (UNK, Homo sapiens, UniProt Q9C0B0, residues 30-357)
Chain of UniProt Q9C0B0 (30-357, looked up): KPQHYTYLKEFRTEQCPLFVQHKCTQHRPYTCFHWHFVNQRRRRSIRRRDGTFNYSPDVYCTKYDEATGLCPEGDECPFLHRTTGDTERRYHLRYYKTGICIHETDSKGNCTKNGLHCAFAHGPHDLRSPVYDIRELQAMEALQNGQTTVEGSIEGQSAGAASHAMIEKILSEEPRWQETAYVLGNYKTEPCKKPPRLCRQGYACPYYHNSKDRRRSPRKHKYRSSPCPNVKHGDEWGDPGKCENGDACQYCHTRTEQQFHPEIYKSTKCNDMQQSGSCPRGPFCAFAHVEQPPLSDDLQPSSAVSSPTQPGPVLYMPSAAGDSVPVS
Technique: RNA Bind-n-Seq
Molecule type: RNA
Medium: in vitro
Tested at: 100 nM
Notes: RNA with constant flanks, vertebrate orthologous sites, ends assumed
Relative to: input RNA pool
Direction: higher = stronger binding
`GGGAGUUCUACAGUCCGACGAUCUUACAGUCAUUGAUGGACUCUAUUUUUUUAUUAUUACUUGGACCUUGGUCGUUUUUAUACUAGCAAAAUGUCUUGUUUUAAUUUGUGUUUUUUGGGGGGGAGGGAGUGAACUUGCUGAUUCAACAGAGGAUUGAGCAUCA` gave a bound/input enrichment of 2.13 ratio.
With `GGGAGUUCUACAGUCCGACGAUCAGAAAAUUUUAACCAAGAAUCCGAAGGUAGAAAUACAGGACCGUGGUUGUCUUCCUCACUUAGAAAUAGAUGCACACCUUUGUUCUCUAGAAGGAGACGAGAGGGACGAGAUGAAUCUUCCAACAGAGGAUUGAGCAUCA` the bound/input enrichment was 0.514 ratio.
For `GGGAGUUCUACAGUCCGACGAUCGGAAAAAAUCAGUAGAAUUACAGAAUACUAAAGUUGAAAGGAUAUCCAAGUAUGUGUUGGUAGUUACUAAAAGAAAUAUAGCUGUUAUUGCCUUGUAUUUAUAGCUCUUGUUUCAGGUCUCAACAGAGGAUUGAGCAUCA`, the bound/input enrichment was 0.51 ratio.
`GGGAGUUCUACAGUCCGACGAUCAUCUCAUGUAGUUUUUAAUUUCAAGCAAAUCUUAUUGUACUUGAAUGUGUCCUGUUUUGUUAGCACACCUAGACUUGCUGUAACUGUACUCAUGUCCCAGUAUGUACGUUCUUUCUAUGACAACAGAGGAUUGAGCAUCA` has a bound/input enrichment of 1.05 ratio.
For `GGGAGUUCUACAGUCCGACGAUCUGCUGUUAAAGCACUGUUUUCCAGGCAUUGUCUGAAUUUAGUGUAAUCUAGGAGAUUUUAUAGUCUUAUUUUAAUGAAGUUUGGAUUGAUGGCGAAGUUGUUAGCAUAGUCUUUUAUUCGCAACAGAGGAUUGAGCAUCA`, the bound/input enrichment was 1.92 ratio.
The bound/input enrichment of `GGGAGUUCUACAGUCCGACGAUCUCUCUCAUUUUAUAUGUCCAAAAAAGGUUUUUGAAUUUUUAAAUACUUGCUAGUUUUGGUUAGCUCUGCCCUCAUGAAGUAUUACUAUAAUUCACCACAAACAGGUAUCUGUCUGAAUUACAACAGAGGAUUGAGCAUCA` is reported as 0.255 ratio.
`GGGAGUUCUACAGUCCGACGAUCGUCCCUCAGUGACAGUGUGCCCUCUGUCGCCGACUCCCACUCCAGCCACUUCUCCGAGUUCAGCUGCUCGGACUUAGAAAGCAUGAGAACAUCGUGCAGUCACGGCUCCAGUGAUUGUCACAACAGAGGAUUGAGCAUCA` has a bound/input enrichment of 0.564 ratio.
`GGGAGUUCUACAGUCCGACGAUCGGAGAGCUGAUAGAGUAGGGUCCUGUUCUCCUUAGAACGUUCUUUCUCUGUUUUGUCUUCCUCAGGGUGGGGUAGGGGUUGUGGUGCACCCUAGCCCUGAGGCGUGAGCAUUUGUGGUUCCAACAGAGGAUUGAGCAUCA` has a bound/input enrichment of 0.721 ratio.

Block 4
Target: Histone acetyltransferase KAT6A, winged helix 2, GST fusion (KAT6A, Homo sapiens, UniProt Q92794, residues 85-181)
Technique: protein binding microarray
Molecule type: double-stranded DNA, one strand shown
Medium: in vitro
Tested at: not given
Notes: 8-mer, flanks averaged, mean of 2 arrays, mostly near background
Relative to: not given
Direction: higher = stronger binding
Residues (chain): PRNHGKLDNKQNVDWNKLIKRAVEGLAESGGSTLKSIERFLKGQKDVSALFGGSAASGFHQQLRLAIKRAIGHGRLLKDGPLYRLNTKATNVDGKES
`AATTTAGA` gave an E-score of 0.177.
With `GACTAAGC` the E-score was 0.03.
`CACTGGCG` has an E-score of 0.162.
The E-score of `ATTTGAAA` is reported as 0.099.
`ACGGTTAG` has an E-score of -0.182.
With `ATCTCCGA` the E-score was 0.0334.
The E-score of `CAGGACTG` is reported as -0.151.
The E-score of `ATACATAC` is reported as -0.246.
`GCCAAAGA` has an E-score of 0.0342.
`GAGATGCA` has an E-score of 0.0845.
`ACAAAATG` has an E-score of -0.0292.
`ACACAATG` gave an E-score of -0.0605.
`AAGACTCT` gave an E-score of -0.136.
`GCACACAA` gave an E-score of 0.0572.
The E-score of `CGTTTGAC` is reported as -0.0468.
The E-score of `CTGCCAGA` is reported as 0.0083.
With `ATGCTGAG` the E-score was 0.0192.
With `ATGCGATC` the E-score was 0.105.
`GGTGCCTA` gave an E-score of -0.0566.
For `AGTTCGTC`, the E-score was 0.169.
The E-score of `ACGTGGGC` is reported as 0.00536.
With `CTCGTTCC` the E-score was -0.0647.
For `GGCATGAA`, the E-score was 0.0942.
`GAGCGGCA` has an E-score of 0.0296.

Some of these lines once more (block 2):
The log2 enrichment of `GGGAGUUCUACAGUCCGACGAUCUGGGAGGUGGAUUUUGUUUAUUUUUUUAGCUCAUUUCCAGGGGUGGGAAUUUUUUGUUAAUAUGUGUCAUGAAUAAAGUUGUUUUUGAAAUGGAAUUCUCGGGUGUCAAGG` is reported as 2.79.
`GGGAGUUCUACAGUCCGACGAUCCCUCAAGUCCUGUGCUACACAUCGUAUGUACCGAAUCGGGAGGGUGGGAGGGAAAGUAUUAUGUUACGCCGUUCGGAUCUGCACUUCCAGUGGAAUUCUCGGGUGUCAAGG` gave a log2 enrichment of 2.5.
`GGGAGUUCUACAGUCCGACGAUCAGUCCUGUGCUACACAUCGUAUGUACCGAAUCGGGAAAAAAAGGGUUUUUGGGUGGGAAAGUAUUAUGUUACGCCGUUCGGAUCUGCACUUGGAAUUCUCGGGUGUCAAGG` has a log2 enrichment of 0.372.
`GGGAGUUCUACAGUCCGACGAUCGUCCUGUGCUACACAUCGUAUGUACCGAAUCGGGGUUUUUGGGGUUUGGGGUUUGGGGAAAGUAUUAUGUUACGCCGUUCGGAUCUGCACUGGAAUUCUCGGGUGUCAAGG` gave a log2 enrichment of 3.59.
